Experimental data collected from several papers.
Compare with care: the assays were run in different laboratories. Several values in a cell are separate wells, animals, samples, runs or records. ± gives the spread as reported. Values after ≈ are worked out from the molar mass of the structure shown.

`CC(C)(C)C(=O)OCOP(=O)(OCOC(=O)C(C)(C)C)C1CCCN(O)C1=O` (stereo not shown) has a log TGI of -4.7 log M (SF-268).
`CC[C@H](C)[C@@H]1NC(=O)CNC(=O)[C@H](CC(=O)O)NC(=O)[C@H](CC(=O)O)NC(=O)[C@@H]2CSSC[C@@H]3NC(=O)[C@H](Cc4c[nH]cn4)NC(=O)[C@H](CCCNC(=N)N)NC(=O)[C@H](CCCNC(=N)N)NC(=O)[C@@H](NC(=O)[C@H](CO)NC(=O)[C@@H](N)Cc4c[nH]cn4)CSSC[C@H](NC(=O)[C@H](C)NC(=O)[C@H](Cc4c[nH]c5ccccc45)NC(=O)CNC(=O)[C@H](CSSC[C@@H](C(=O)N[C@@H](CCCCN)C(=O)N4CCC[C@H]4C(=O)N[C@@H](CC(C)C)C(=O)N[C@@H](CCCNC(=N)N)C(=O)N[C@H](C(=O)O)C(C)C)NC1=O)NC(=O)[C@H](CCCNC(=N)N)NC(=O)[C@H](CCCNC(=N)N)NC(=O)[C@H](CC(N)=O)NC(=O)[C@H](CCC(=O)O)NC(=O)[C@H](Cc1c[nH]cn1)NC3=O)C(=O)N[C@@H](Cc1ccc(O)cc1)C(=O)N2` — result for ion current: “no effect” (hKv1.6 human; concentration not given).
`CSCC[C@H](NC(=O)CNC(=O)[C@H](CCSC)NC(=O)[C@H](CS)NC(=O)[C@@H](N)CS)C(=O)N[C@@H](CS)C(=O)NCC(=O)N[C@@H](CCCCN)C(=O)O` has a p-ERK/ERK ratio of 0.53 ± 0.03 (ERK (mouse); Western blot; RAW264.7; concentration not given, 6 h pretreatment, with: LPS for 30 min).
For `Cc1[nH]nc2c1N=C(c1ccccc1Cl)c1cnc(N3CCOCC3)cc1N2`, the inhibition was 2% (NMDA receptor phencyclidine site, rat; radioligand binding; 10 µM).
For `COc1ccccc1-c1n[nH]c2nc(NC3CCN(C(=O)Cc4ccc(F)cc4F)CC3)ncc12`, the relative abundance was 0.97 (bead binding, competition bead pull-down, refers to: LMJF.28.2750; Leishmania donovani extract; 10 µM; reference: vehicle).
For `O=C1NC2(CC2)COc2ncc(F)cc2[C@H]2COCCN2c2ccn3ncc1c3n2`, the serum urea was 7.32 ± 2.07 mmol/L (Sprague-Dawley rat, female, serum; oral, 20 mg/kg/day, end of treatment, 4-week subacute toxicity).
`CC(C)[C@H](NC(=O)C(NC(=O)CC[C@H](N)C(=O)O)C(O)C(N)=O)C(=O)N(C)CC(=O)N[C@H](Cc1c[nH]c2ccc([N+](=O)[O-])cc12)C(=O)NC[C@@H]1NC(=O)[C@@H](Cc2c[nH]c3ccc([N+](=O)[O-])cc23)NC1=O` (stereo partly shown) gave an MIC of 100 µM (≈ 97.8 µg/mL) (TrmD; Escherichia coli, engineered MG1655 TrmD-expressing tolC+; M9 medium with arabinose).
The inhibition of `Cc1ccc2c(n1)c(-c1cccc(S(C)(=O)=O)c1)c(C)n2C/C(F)=C/CN` is reported as 39% (L-type calcium channel, rat, Dihydropyridine site; radioligand binding, Eurofins SafetyScreen; 10 µM).
`COc1ccccc1-c1n[nH]c2nc(N[C@H]3CC[C@H](NS(=O)(=O)CC(C)C)CC3)ncc12` gave a relative abundance of 0.98 (bead binding, competition bead pull-down, refers to: LMJF.35.0980; Leishmania donovani extract; 10 µM; reference: vehicle).
For `Nc1ncc(-c2cc(-c3cnn(CC(F)(F)F)c3)ncc2F)nc1C(=O)NC1CNCC(F)C1` (stereo not shown), the remaining binding was 85% (ABL1(Y253F)-phosphorylated; KINOMEscan competition binding; 1 µM; reference: DMSO control).
`CS(C)(=O)=Nc1ccc(-c2ccc(-c3nc4cc(O[C@@H]5CO[C@H]6[C@@H]5OC[C@H]6O)[nH]c4cc3F)cc2)cc1` gave an inhibition of 5% (tryptase human; enzyme activity; 10 µM).
For `CC(C)CC(O)(CC(C)C)c1cn(C(=O)N2CCCC2)nn1`, inhibition read “no inhibition” (other serine hydrolases, human and rat; inhibitor, gel-based competitive ABPP; cancer cell proteomes; concentration not given, 30 min, 37 °C).
`CC[C@@H]1CN2CCc3c([nH]c4cccc(OC)c34)[C@@H]2C[C@@H]1/C(=C\OC)C(=O)OC` gave an IC50 of 1.29 µg/mL and 1.3 µg/mL (rabbit anti-mitragynine polyclonal IgG; antigen binding, competitor, competitive indirect ELISA; 15% methanol; 30 min antibody-standard, 60 min antibody-antigen incubation).

Some of these lines once more:
The inhibition of `Cc1ccc2c(n1)c(-c1cccc(S(C)(=O)=O)c1)c(C)n2C/C(F)=C/CN` is reported as 39% (L-type calcium channel, rat, Dihydropyridine site; radioligand binding, Eurofins SafetyScreen; 10 µM).
For `O=C1NC2(CC2)COc2ncc(F)cc2[C@H]2COCCN2c2ccn3ncc1c3n2`, the serum urea was 7.32 ± 2.07 mmol/L (Sprague-Dawley rat, female, serum; oral, 20 mg/kg/day, end of treatment, 4-week subacute toxicity).
